Results gathered from unrelated publications.
Every numbered part comes from another study and shows a few of its results, in no order.

Series 1
Target: Centromere-binding protein 1, full length, N-terminal tag (CBF1, Saccharomyces cerevisiae, UniProt P17106, residues 1-351)
Chain of UniProt P17106 (whole entry, looked up): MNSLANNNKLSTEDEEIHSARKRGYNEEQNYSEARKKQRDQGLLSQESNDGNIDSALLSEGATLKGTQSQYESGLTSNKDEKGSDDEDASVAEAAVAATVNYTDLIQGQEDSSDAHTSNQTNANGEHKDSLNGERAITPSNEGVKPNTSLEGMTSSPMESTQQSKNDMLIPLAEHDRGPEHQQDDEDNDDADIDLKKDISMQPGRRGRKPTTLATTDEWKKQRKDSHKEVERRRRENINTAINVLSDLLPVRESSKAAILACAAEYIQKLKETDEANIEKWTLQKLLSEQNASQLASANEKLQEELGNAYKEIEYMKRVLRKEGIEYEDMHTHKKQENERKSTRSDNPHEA
Technique: protein-binding microarray
Form: double-stranded DNA, one strand shown
Matrix: in vitro
Tested at: 0.8 µM
Notes: whole 60-bp probe, no competitor
Direction: higher = stronger binding
Constant ends, left off below: … GTCTTGATTCGCTTGACGCTGCTG
Sequence | fluorescence intensity
CTAAGTTTTCATTGTCACGTATCTGCAATGGCATTC | 742 a.u.
CCTAACTACTATAGAGCCGTGATATAGCTTCGTACA | 547 a.u.
GAAAATTCAATCTGGCACGGCACAAGTTCCATCTAG | 482 a.u.
CTATCACTATGCACTGATGACGTCACTGTCAATTTC | 580 a.u.
CTACCATGCCAATCAAACGTGCAACAAAGATGATTC | 543 a.u.
GAAATATGAGTTTCTAACGTGCAATGTTTGGTGTAG | 529 a.u.
CTAAAGGGCATACATGACGTGGATATATGTAAATTC | 491 a.u.
CTAAGCTGTTGTTTTCTGATGTCAATAACAGGGTTC | 558 a.u.
CTACCCGAATGTTGTAACATCAAAGCCAAGCACTTC | 512 a.u.

Series 2
Target: POU, POU domain (Salpingoeca helianthica)
Technique: Spec-seq
Form: double-stranded DNA, one strand shown
Matrix: in vitro
Tested at: not given
Notes: whole probe, mean of replicates
Relative to: not given
Direction: lower = stronger binding
Constant ends, left off below: GAGTCGTCTCGTCAGCAC … ATCCGTAGAGCACTCAGGTC
Residues (chain): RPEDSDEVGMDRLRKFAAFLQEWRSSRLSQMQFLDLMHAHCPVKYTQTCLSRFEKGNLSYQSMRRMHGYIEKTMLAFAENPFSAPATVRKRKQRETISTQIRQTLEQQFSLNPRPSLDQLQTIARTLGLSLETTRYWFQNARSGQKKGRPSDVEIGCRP
Sequence | relative binding energy
ATAGGC | 1.18 ln ratio
ATGCTC | 1.2 ln ratio
ATTAAC | 0.0457 ln ratio
TGTCTA | 0.797 ln ratio
CTATTA | -0.433 ln ratio
ATGTGG | 1.22 ln ratio

Series 3
Target: Histone acetyltransferase KAT6A, winged helix 1, GST fusion (KAT6A, Homo sapiens, UniProt Q92794, residues 1-85)
Technique: protein binding microarray
Form: double-stranded DNA, one strand shown
Matrix: in vitro
Tested at: not given
Notes: 8-mer, flanks averaged, mean of 2 arrays, mostly near background
Relative to: not given
Direction: higher = stronger binding
Target sequence (chain): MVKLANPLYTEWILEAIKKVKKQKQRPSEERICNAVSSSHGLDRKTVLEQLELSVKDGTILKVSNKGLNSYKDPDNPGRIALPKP
Sequence | E-score
AGGCTAAA | -0.0256
AAATCCTA | -0.0988
AATTGGCA | -0.145
AGGAATCG | 0.0706
CGTTAACC | 0.152
CCTAATAG | 0.00683

Single results of other studies
Molecule | target | assay | test system | conditions | how to read | endpoint | value
PhoQ, residues 284 288 289 292 302 303 GLASVI | PhoP, residues 12 14 15 18 19 STWGI (Escherichia coli, UniProt P23836) | Sort-seq, measured: YFP reporter | E. coli | PhoQ-PhoP variant library, together with: 10 µM Mg2+ | relative to: high Mg2+ state, higher = stronger signaling | fold induction | 4.43

Repeated from above (series 1):
Sequence | fluorescence intensity
CCTAACTACTATAGAGCCGTGATATAGCTTCGTACA | 547 a.u.
GAAAATTCAATCTGGCACGGCACAAGTTCCATCTAG | 482 a.u.
